Assay results of several laboratories.
Compare with care: the assays were run in different laboratories.
Target: 3-phosphoinositide-dependent protein kinase 1 (PDPK1, Homo sapiens, UniProt O15530)
Sequence (O15530 1-556, as in one of the studies): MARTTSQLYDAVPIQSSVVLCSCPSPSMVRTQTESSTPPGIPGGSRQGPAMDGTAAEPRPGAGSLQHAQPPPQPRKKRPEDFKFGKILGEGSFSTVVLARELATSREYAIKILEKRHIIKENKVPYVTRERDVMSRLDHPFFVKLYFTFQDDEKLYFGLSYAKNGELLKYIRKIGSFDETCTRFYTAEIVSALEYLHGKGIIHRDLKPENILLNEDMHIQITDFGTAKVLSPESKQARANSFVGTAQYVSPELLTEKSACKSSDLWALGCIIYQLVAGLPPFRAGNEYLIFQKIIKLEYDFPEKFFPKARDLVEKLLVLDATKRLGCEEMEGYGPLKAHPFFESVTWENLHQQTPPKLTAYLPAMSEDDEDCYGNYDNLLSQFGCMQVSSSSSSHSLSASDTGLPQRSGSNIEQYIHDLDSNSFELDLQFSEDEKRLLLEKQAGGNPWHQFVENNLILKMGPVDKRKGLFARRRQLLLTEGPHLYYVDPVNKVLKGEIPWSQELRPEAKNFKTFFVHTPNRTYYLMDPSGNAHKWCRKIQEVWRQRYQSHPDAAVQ

CN(C)[C@H]1C[C@@]23CC[C@@]4(O2)C(=CC[C@]2(C)[C@@H](c5ccc6ccncc6c5)CC[C@H]24)C=C3[C@@H](O)[C@@H]1O — inhibition (ATP probe labelling, inhibitor, KiNativ profiling; 0.1 µM): -7.4%
C[C@H](NCc1ccc(-c2ccc(C(F)(F)F)cc2)cc1)C(N)=O — inhibition (cell-free assay, competition with immobilised ligand; 1 µM): 2%
O=C1NC(=O)c2c1c1cc(F)c[n+]3c1c1c2c2cc(O)ccc2[n]1[Ru-4]312([N]=C=S)[S+]3CC[S+]1CC[S+]2CC3 (centres unmarked) — remaining activity (enzyme activity; 100 nM, human enzyme, together with: 10 µM ATP; relative to: untreated): 8%
CC(C)[C@H]1NC(=O)C[C@H]2/C=C/CCSSC[C@@H](NC1=O)C(=O)N[C@H](Cc1cccc3ccccc13)C(=O)NCC(=O)O2 — inhibition (enzyme activity, inhibitor; 10 µM): -3.7%
Nc1ccc(/C=C/C(=O)N2CCc3c(oc4c(-c5ccc(F)cc5)cc(-c5ccc(C(=O)N6CCC(F)(F)CC6)cn5)cc34)C2)cn1 — remaining binding (binding, competition with immobilised ligand; 1 µM): 96%
CCOC(=O)[C@@H]1Cc2c(cc([N+](=O)[O-])cc2[N+](=O)[O-])[C@H](O)[C@]12C(=O)Nc1ccc(Br)cc12 — remaining binding (binding, competition with immobilised ligand; 0.1 µM): 48%
N[C@H](C(=O)N1CCCC1)C1CCN(c2nccc3c(-c4ncc(Cl)cc4Cl)cccc23)CC1 — inhibition (kinase activity, inhibitor; 10 µM, together with: ATP 1 mM): 0.7%
CS(C)(=O)=Nc1ccc(-c2ccc(-c3nc4cc(O[C@@H]5CO[C@H]6[C@@H]5OC[C@H]6O)[nH]c4cc3F)cc2)cc1 — inhibition (enzyme activity, inhibitor; 10 µM): -12%

A few entries again:
C[C@H](NCc1ccc(-c2ccc(C(F)(F)F)cc2)cc1)C(N)=O — inhibition (cell-free assay, competition with immobilised ligand; 1 µM): 2%
